Assay results of several laboratories.
A part holds a random share of what one study measured. Changes are numbered by the printed parent chain.

Block 1
Target: NFE2L1, bZIP domain (human)
Method: DHFR protein complementation
Sample: yeast
Notes: single substitutions, most at no-binding floor
Baseline: wild-type JUN-FOS pair
Reading: higher = stronger binding
Starting sequence: JUN, bZIP domain (human); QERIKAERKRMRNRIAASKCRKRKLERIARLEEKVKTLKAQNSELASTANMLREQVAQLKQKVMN; partner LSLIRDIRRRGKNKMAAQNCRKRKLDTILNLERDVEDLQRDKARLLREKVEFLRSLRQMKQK
Variant | binding fitness [natural log]
L31A | -1.46
K39G | -1.43
A29Y | -1.51
K36S | -1.47
V56R | -1.2
E54K | -1.43
A49Q | -1.67
L38E | -1.53
L38H | -1.45
N42M | -1.47
V56E | -1.57
L31S | -1.4
L45N | -1.49
A29G | -1.49
R53D | -1.51
V56T | -1.36
L38T | -1.36
A29C | -1.45
I28Y | -1.33
T37H | -1.27
E44K | -1.59
T48R | -1.28
K36M | -1.34
A57T | -1.4
E33C | -1.47

Block 2
Target: RNA binding protein fox-1 homolog 2, RRM domain, GST-SBP tag (RBFOX2, Homo sapiens, UniProt O43251-10, residues 100-194)
Method: RNA Bind-n-Seq
Molecule type: RNA
Sample: in vitro
Concentration: 365 nM
Notes: natural RNA segment, single round, ends assumed
Baseline: no-protein control
Reading: higher = stronger binding
Residues (chain): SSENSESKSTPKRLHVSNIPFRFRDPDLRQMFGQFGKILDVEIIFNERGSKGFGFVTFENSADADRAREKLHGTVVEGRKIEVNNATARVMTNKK
Sequence | RBNS enrichment (R)
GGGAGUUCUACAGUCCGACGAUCAGAUGCUAGAGUCGACUGCACUCUCUCCUUAGCUGCAGACCAUGCACAGUGCCUGGGGCGGAAGGAGGAGAGGUGUUGCGGUUUGCCCUGCUGCCUCCCCAGCAGGAACAUGGAAUUCUCGGGUGCCAA | 0.539
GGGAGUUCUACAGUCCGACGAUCACCACCACCUACAAAUGAGGGGACUCAUCUAGAAGACCUCUAAGGUCCCCUUUUGGCUCUGAGGGGUCUCUAAUAAUCCCCACUUGGAAUUCAGCACCGCAAGGAAAUUAUGGAAUUCUCGGGUGCCAA | 0.378
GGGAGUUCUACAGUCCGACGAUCUCUUACAACCAAGGUAGUUUGUAUCAUUUUCAAAAGUACACAUUAUUAGGGUCUAGUUGCCCCUGGUCCUUAGCUUGCUCAGCUGCAAAAUAAGCGUGCUAAAUUAAAUUUGGAAUUCUCGGGUGCCAA | 0.239
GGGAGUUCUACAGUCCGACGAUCGUCUUGUGCCUAGACCUCACUCCCAGCCCACCAGGGAGCCAAUUUCAGCAUACCAUGCCAAGGCACACCGACCUACCAGCCAAUAACUGUUCUGCCUCUGCCUUGAUACUUGGAAUUCUCGGGUGCCAA | 0.39
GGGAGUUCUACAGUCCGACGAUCGGGUCUCCAGUCCUGUUUGCCUGAAUGCUCUGGGAUCUAUGCCUAGAGCAAGCCUGAAGACGGCCCCUGGAAGACAAACCCAAGCUGAGGGAAUCCAGGCCCAGCAAGAGUGGAAUUCUCGGGUGCCAA | 0.438
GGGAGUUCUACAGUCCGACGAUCAGGAGAGGACUGGGCCUGAUGGAAGUUAACCCGGAGCUAAGUCACCCAGAGCACAGGAGCUGCCAUGUCAGAUGGGAAAUCUGCCUAUGUCAUACCGUGACAGCCCGCAGUGGAAUUCUCGGGUGCCAA | 1.17
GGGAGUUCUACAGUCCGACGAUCGGGGAGACCUCUACUGCCUUGGACAACUUUUCUCAUGUUGAAGCCACUGCCUUCACCUUCACCUUCAUCCAUGUCCAACCCCCGACUUCAUCCCAAAGGACAGCCGCCUGUGGAAUUCUCGGGUGCCAA | 0.594
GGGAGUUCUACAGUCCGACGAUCUUAAUGCUUGUCUAUAACAUUGGAGCCAUCACAAGAAUGUUCAUUUGGAAUGAAGGCUGCAGGCACUGGUUGCAGACGUCUUUAUAGGCAGUCACCAUGUUGUCAAACCUUGGAAUUCUCGGGUGCCAA | 0.192

Block 3
Target: Phosphate system positive regulatory protein PHO4, full length, GST-tagged (PHO4, Saccharomyces cerevisiae, UniProt P07270, residues 1-312)
Method: competition protein-binding microarray
Molecule type: double-stranded DNA, one strand shown
Sample: in vitro
Concentration: 2 µM
Notes: whole 60-bp probe, lowest competitor level
Added: Cbf1 competitor, 0.05 µM
Reading: higher = stronger binding
Residues (chain): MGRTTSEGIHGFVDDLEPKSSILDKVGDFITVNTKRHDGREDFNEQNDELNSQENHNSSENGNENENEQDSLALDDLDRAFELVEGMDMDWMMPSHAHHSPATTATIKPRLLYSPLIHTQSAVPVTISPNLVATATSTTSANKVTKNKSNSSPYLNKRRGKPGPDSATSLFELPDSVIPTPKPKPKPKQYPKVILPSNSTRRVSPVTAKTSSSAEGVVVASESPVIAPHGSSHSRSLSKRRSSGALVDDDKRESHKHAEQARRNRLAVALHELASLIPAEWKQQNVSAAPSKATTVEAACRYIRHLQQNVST
Sequence | fluorescence intensity
CTTTCCCGATCTTTTCACGTGACTTTAGCACATTTGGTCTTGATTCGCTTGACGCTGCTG | 12400 a.u.
AAATTACTAAGTTGCCCCGTGGGTGACGCCGTATGAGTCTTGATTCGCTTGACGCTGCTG | 9930 a.u.
TTTCGTGTAGCATCGCACGTCAGACATGGATGCAACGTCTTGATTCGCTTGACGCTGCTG | 4860 a.u.
GGTAAGAAAAACCGACGCGTGGCCGACATCGAGTAGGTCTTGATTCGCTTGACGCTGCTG | 9540 a.u.
TGCGCAACAACTTGTCACCGTACTTTATGTCTAGAAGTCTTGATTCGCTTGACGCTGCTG | 3270 a.u.
CCTTATGTTATATGGCAGGTGAAATTGTGGGGCTACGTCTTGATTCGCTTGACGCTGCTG | 4640 a.u.
GATGGATTCAGTCCACACATGAGATTCGCAGGATGTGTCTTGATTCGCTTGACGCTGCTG | 5850 a.u.
GACCAGCCGCACCGTCACGTGACGGTATACGATCCTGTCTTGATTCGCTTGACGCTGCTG | 13200 a.u.
AGGCCTATCTTCTCACGCCTGAGGAACCTGCCAAGAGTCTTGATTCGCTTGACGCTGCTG | 4120 a.u.
TGCGCAACAACTTGCTCAGTGGGTGTATGTCTAGAAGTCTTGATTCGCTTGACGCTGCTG | 4870 a.u.
CTTTCCCGATCTTTTCACGTGATGTTAGCACATTTGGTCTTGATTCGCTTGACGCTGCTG | 13600 a.u.
CGTCCTAGTGATTTTCACGTGGAATCCATGAGGAAGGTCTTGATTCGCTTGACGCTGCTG | 11500 a.u.
CTAACGAAGGTTTGTACTGTGGGTGACAAGCCAAGTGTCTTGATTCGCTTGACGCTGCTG | 3570 a.u.
AGAAAAACCAGCCATCGCGTGTGTTTGGAGAGCTGAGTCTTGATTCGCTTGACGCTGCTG | 6110 a.u.
AAAGCGGTAATTTTTCACGTGTACTCACATATCTATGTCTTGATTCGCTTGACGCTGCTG | 13400 a.u.
CCATACCAAACAGCCCTCGTGGAGGAAAGAACGGTAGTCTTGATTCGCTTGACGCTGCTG | 13300 a.u.
CCAATTAACCAAAGCCACGTGGATTTGTCATCAGAGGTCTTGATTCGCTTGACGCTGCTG | 20000 a.u.
TGCGCAACAACTTTTCACGTGACGTTATGTCTAGAAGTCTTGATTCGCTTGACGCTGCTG | 11300 a.u.
AAAAGTAACCATAGTCTCGTGCTAATTCGGTACTATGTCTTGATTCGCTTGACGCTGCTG | 9570 a.u.

Block 4
Target: Sal-like protein 4, full length isoform A (SALL4, Homo sapiens, UniProt Q9UJQ4, residues 1-1053)
Chain of UniProt Q9UJQ4 (whole entry, looked up): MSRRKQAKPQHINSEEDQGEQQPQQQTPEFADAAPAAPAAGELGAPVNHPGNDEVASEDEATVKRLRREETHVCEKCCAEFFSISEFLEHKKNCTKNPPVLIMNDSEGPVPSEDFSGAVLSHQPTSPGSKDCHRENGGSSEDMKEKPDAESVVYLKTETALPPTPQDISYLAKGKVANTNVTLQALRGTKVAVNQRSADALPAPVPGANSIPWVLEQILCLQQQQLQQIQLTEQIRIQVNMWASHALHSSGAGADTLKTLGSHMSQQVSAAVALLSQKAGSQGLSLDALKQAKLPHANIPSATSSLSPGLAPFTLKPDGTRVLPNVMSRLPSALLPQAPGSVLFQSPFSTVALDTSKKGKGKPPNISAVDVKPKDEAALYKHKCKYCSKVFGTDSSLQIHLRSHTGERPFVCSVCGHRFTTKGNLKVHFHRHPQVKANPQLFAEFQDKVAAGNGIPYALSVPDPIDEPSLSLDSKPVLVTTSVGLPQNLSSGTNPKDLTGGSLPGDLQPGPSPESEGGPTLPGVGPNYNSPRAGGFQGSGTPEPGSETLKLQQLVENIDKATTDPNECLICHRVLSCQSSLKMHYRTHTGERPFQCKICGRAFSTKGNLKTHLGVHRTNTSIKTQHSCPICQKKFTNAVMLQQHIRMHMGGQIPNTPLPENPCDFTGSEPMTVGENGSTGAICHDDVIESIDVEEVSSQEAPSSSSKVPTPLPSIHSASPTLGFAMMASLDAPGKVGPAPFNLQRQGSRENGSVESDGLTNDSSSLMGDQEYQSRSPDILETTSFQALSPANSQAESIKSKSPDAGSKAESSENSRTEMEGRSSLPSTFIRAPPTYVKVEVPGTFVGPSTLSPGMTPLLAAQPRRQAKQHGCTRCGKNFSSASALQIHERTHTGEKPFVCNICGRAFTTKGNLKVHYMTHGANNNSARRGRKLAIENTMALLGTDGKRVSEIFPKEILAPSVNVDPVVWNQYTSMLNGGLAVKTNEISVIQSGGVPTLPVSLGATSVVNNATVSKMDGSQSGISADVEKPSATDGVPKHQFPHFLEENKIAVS
Method: universal PBM
Molecule type: double-stranded DNA, one strand shown
Sample: in vitro
Concentration: 600 nM
Notes: 8-mer, flanks averaged, mean of replicates
Reading: higher = stronger binding
Sequence | E-score
ACTCGCCA | -0.0891
AAACCGAG | -0.0578
CCCCGTCA | -0.258
GGTCGGGA | -0.23
TGTAAGAA | 0.195
ACTGCCGG | -0.201
GAATGTGC | 0.0556
TACATTAA | 0.296
ACGCATGG | -0.111
AGATCGGC | -0.273
ATGGGAGC | -0.167
CGCATCCA | -0.149
AAAGGGTA | 0.0907
GAGCTGGA | -0.271
ATTGACAA | 0.193
CGTGGGGC | -0.362
GCTACGCA | -0.138
AGCCTTTC | -0.0992
CGATACCC | -0.36
TCATACCA | 0.217

A few entries again (block 1):
Variant | binding fitness [natural log]
R53D | -1.51
V56T | -1.36
L38T | -1.36
A29C | -1.45
I28Y | -1.33
T37H | -1.27
